Results of several laboratories.
Protocols differ between the studies behind these lines. ± gives the spread as reported.
Sequence of UniProt Q9UKI8 (whole entry, looked up): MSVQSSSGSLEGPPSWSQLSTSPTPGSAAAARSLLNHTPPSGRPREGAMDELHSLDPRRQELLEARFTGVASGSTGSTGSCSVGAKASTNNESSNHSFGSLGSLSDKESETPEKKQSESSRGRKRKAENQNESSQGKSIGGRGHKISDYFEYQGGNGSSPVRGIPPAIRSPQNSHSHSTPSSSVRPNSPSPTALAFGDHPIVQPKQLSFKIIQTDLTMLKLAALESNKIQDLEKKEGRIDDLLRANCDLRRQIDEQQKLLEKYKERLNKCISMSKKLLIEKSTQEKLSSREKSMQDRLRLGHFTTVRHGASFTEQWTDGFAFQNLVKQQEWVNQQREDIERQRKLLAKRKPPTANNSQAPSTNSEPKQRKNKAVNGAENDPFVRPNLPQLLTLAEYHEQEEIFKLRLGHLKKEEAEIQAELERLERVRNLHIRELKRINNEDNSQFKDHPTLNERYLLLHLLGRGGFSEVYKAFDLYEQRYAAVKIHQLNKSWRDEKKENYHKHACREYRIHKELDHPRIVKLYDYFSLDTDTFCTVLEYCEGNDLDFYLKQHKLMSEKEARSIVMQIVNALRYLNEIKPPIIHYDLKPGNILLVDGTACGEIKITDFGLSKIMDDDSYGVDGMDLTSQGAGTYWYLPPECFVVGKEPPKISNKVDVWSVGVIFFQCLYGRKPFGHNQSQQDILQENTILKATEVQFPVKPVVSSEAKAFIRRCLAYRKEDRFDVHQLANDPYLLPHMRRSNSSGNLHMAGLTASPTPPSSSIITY
Sequence of UniProt P08684 (whole entry, looked up): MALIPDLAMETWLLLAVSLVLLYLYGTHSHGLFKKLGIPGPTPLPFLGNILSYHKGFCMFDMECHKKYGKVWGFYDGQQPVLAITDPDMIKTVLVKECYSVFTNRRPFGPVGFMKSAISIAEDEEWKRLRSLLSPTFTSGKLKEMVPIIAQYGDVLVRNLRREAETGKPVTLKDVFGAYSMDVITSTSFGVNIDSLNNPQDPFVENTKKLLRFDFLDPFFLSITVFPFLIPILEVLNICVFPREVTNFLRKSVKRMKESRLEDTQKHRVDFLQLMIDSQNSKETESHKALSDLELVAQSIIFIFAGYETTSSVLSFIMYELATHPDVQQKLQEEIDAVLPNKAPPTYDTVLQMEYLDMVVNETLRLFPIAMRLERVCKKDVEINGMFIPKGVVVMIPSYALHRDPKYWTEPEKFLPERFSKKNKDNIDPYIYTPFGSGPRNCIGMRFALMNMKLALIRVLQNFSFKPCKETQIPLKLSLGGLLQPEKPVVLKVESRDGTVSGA

O=C(N[C@H](Cc1c[nH]c2ccccc12)C(=O)Nc1ccncc1)c1ccc(-c2ccc(F)c(C(F)(F)F)c2)cc1F
concentration (Swiss Webster mouse, female, lung; oral, 50 mg/kg, 2 h, 20% HPβCD vehicle): 13 µM

C=C(NC(=O)c1nccc(OC)c1O)C(=O)O[C@@H](C)[C@H](O)[C@@H](Cc1ccccc1)C(=O)O
concentration (lactating goat, female, kidney; oral, 21.3 mg/kg/day, 5 days, phenyl-labelled): 4 ng/g

CN[C@H](CC(C)C)C(=O)N[C@H]1C(=O)N[C@@H](CC(N)=O)C(=O)N[C@H]2C(=O)N[C@H]3C(=O)N[C@H](C(=O)N[C@H](C(=O)O)c4cc(O)cc(O)c4-c4cc3ccc4O)[C@H](O)c3ccc(c(Cl)c3)Oc3cc2cc(c3O[C@@H]2O[C@H](CO)[C@@H](O)[C@H](O)[C@H]2O[C@H]2C[C@](C)(N)[C@H](O)[C@H](C)O2)Oc2ccc(cc2Cl)[C@H]1O
concentration (E-AB sensor; male C57BL/6J mice, hippocampus; intravenous, 35 mg/kg, 4 h): 2.7 ± 0.9 µM

Cc1cc([C@@H](C)Nc2ccccc2C(=O)O)c2nc(N3CCC(F)(F)CC3)c(C#N)c(=O)n2c1
concentration (NOD-SCID mice, HCC1954 xenograft; intraperitoneal, 120 mg/kg once daily, 1 h): 56600 ng/mL

COc1cccc(-c2n[nH]c(SCc3ccccn3)n2)c1OC
structural aberrations per 100 cells (primary human lymphocytes; 0.25 mg/mL, 3 h, added: rat liver S9): 3

CN(C(=O)n1cnc(-c2cccnc2)c1)C1CCCCC1
concentration (Wistar rat, medulla oblongata; oral, 10 mg/kg/day of BIA 10-2474, 4 h, repeated 5 days): 31.1 ± 7.9 ng/g

NC1(C(=O)N[C@@H](CCO)c2ccc(Cl)cc2)CCN(c2nc[nH]c3nccc2-3)CC1
incidence of Somnolence (metastatic CRPC patients; 480 mg b.i.d., any grade, treatment-related, added: enzalutamide 160 mg daily): 0%

CCc1c(-c2ccccc2)c(-c2ccccc2)nn1-c1ccccc1-c1cccc(OCC(=O)O)c1
concentration (female Sprague-Dawley rat, uterus homogenate; oral, 10 mg/kg, 8 h): 48.3 ng/mL

Cc1cc(Nc2ccc(S(F)(F)(F)(F)F)cc2)n2nc(C(C)(F)F)nc2n1
patients with sinus bradycardia (Plasmodium falciparum; P. falciparum malaria patients; oral, 400 mg): 15.4%

CC[C@@H]1[C@H](F)C(=O)N[C@@H]1COc1nccc2cc(C(N)=O)c(OC)cc12
inhibition (TLK1 (Homo sapiens, UniProt Q9UKI8); ATP-site probe binding, ActivX profiling; THP-1 cell lysate; 0.01 mM, Lys2 site): 1.9%

NC/C(=C\F)COc1cccc(Cn2c(=S)[nH]c(=O)c3[nH]cnc32)c1
concentration (C57BL/6J mice, heart; oral, 15 mg/kg single, 1 h): 131 ng/mL

O=C(N[C@H](Cc1c[nH]c2ccccc12)C(=O)Nc1ccncc1)c1ccc(-c2cc(C(F)(F)F)ccc2F)cc1F
concentration (Swiss Webster mouse, female, liver; oral, 50 mg/kg, 8 h, 20% Kolliphor vehicle): 4940 µM

Cn1cc(-c2ccc(-c3cncc(Cl)c3N3CCC4(CCNC4=O)CC3)cc2)cn1
log2 fold change (COLO 205; gene expression, microarray, refers to: SOX8 mRNA; concentration not given, 6 h; baseline: untreated cells): 1.02

O=C(N[C@H](Cc1c[nH]c2ccccc12)C(=O)Nc1ccncc1)c1ccc(N2CCN(c3ccc(F)cc3F)CC2)cc1F
concentration (Swiss Webster mouse, female, plasma; oral, 50 mg/kg, 8 h, 20% Kolliphor vehicle): 2.08 µM

Cc1c(C(=O)O)ccc2c3n(nc12)[C@@H]1[C@H](C3)N(CC2CC2)[C@@]2(C(=O)Nc3cc(Cl)ccc32)[C@H]1c1cccc(Cl)c1F
concentration (athymic nude mice, female, sample A PDX subcutaneous, subcutaneous tumour; oral, 1 mg/kg, 24 h): 0.032 µM

Cc1cc(Nc2ncnc3ccc(NC4=NC(C)(C)CO4)cc23)ccc1Oc1ccn2ncnc2c1
Tmax, median (Cytochrome P450 3A4 (CYP3A4, Homo sapiens, UniProt P08684); human, plasma; oral, 300 mg, day 1, single dose alone): 3 h

COc1ccc2c(=O)n(C)c(-c3ccccc3)nc2c1
concentration (Sprague-Dawley rat, male, skeletal muscle; oral, 30 mg/kg, 2 h): 18.1 ng/g

CN(C(=O)n1cnc(-c2ccc[n+]([O-])c2)c1)[C@H]1CC[C@H](O)CC1
concentration (Wistar rat, pons; oral, 10 mg/kg/day of BIA 10-2474, 72 h, repeated 5 days): 9.6 ± 0.5 ng/g

Excerpt of the above:
Cc1c(C(=O)O)ccc2c3n(nc12)[C@@H]1[C@H](C3)N(CC2CC2)[C@@]2(C(=O)Nc3cc(Cl)ccc32)[C@H]1c1cccc(Cl)c1F
concentration (athymic nude mice, female, sample A PDX subcutaneous, subcutaneous tumour; oral, 1 mg/kg, 24 h): 0.032 µM

NC/C(=C\F)COc1cccc(Cn2c(=S)[nH]c(=O)c3[nH]cnc32)c1
concentration (C57BL/6J mice, heart; oral, 15 mg/kg single, 1 h): 131 ng/mL
